Results collected from several papers.
Each line is one published result; not all experiments were run side by side. ± marks the error that the study gave.

SMILES	tested on	assay	system	setting	endpoint	result
O=S(=O)(Nc1ccccc1)c1ccc(NC(=S)Nc2ccccc2)cc1		refers to: CREA	male mouse, blood	oral, 80 mg/kg daily, 14 days	blood chemistry level	0.2 mg/dL
COc1ncnn2ccc(-c3cnc4nc(C)n(Cc5nnc([C@@H](C)F)o5)c4c3)c12			human patients	oral, dose not given	incidence of grade 1 amylase increased	0%
CO[C@H]1C[C@@H]2CC[C@@H](C)[C@@](O)(O2)C(=O)C(=O)N2CCCC[C@H]2C(=O)O[C@H]([C@H](C)C[C@@H]2CC[C@@H](OC(=O)NCCOCCOCCOCCOCCOCCOCCOCCOCCC(=O)N3CCc4cc(Cn5nc(-c6ccc7oc(N)nc7c6)c6c(N)ncnc65)ccc4C3)[C@H](OC)C2)C[C@@H](O)[C@H](C)/C=C(\C)[C@@H](O)[C@@H](OC)C(=O)[C@H](C)C[C@H](C)/C=C/C=C/C=C/1C		phase 1 dose escalation, refers to: headache	advanced solid tumour patients	intravenous, 6 mg weekly, any grade	TRAE incidence	8.3%
OC(c1cc(C(F)(F)F)nc2c(C(F)(F)F)cccc12)C1CCCCN1 (stereo not shown)	Plasmodium falciparum	cell growth	D10		IC50	0.069 µM
Cn1ncc(-c2nc(N[C@H]3CC[C@H](N)CC3)ncc2Cl)c1CC1CC1		refers to: nausea any grade	human patients phase I	dose not given	adverse event incidence	67%
CCc1ccc(CC/C=C/c2ccc3c(c2)C(=O)CC3)cc1			Sprague-Dawley rat, female	oral, 30 mg/kg/day, 14 days	Glucose	6.22 mM
CC(C)C[C@@H]1NC(=O)CNC(=O)[C@H](CC(N)=O)NC(=O)[C@H](CCCNC(=N)N)NC(=O)[C@H]([C@@H](C)O)NC(=O)[C@@H]2CSSC[C@@H]3NC(=O)[C@H]([C@@H](C)O)NC(=O)CNC(=O)CNC(=O)[C@H](C(C)C)NC(=O)[C@@H]4CSSC[C@H](NC(=O)[C@H](CCCCN)NC(=O)[C@H](CSSC[C@H](NC(=O)[C@H](C(C)C)NC(=O)[C@@H]5CCCN5C1=O)C(=O)NCC(=O)N[C@@H](CCC(=O)O)C(=O)N[C@@H]([C@@H](C)O)C(=O)N4)NC(=O)CNC(=O)[C@@H]1CCCN1C(=O)[C@H]([C@@H](C)O)NC(=O)[C@H](CC(N)=O)NC3=O)C(=O)N[C@@H](CO)C(=O)N[C@@H](Cc1c[nH]c3ccccc13)C(=O)N1CCC[C@H]1C(=O)N[C@@H](C(C)C)C(=O)N2		HPLC	water	180 µM, 14 days, 37 °C, deamidation stability	remaining peptide	99.1 ± 0.3%
c1ccc2cc3c(cc2c1)-c1cccc2cccc-3c12			PDMS-water partitioning	PAH compilation	literature range of log K	4.85 to 5.86 log units
CN1CC[C@@H](c2c(O)cc(O)c3c(=O)cc(-c4ccc(C(F)(F)F)cc4Cl)oc23)[C@@H]1CO		refers to: Hypoalbuminemia	relapsed AML	oral, 150 mg, grade 3-4, intermittent dosing	patients with adverse event	0%
Clc1cc(Cl)c(-c2c(Cl)cc(Cl)cc2Cl)c(Cl)c1			fresh water	20 °C, S30-1 sampler, 30 µm	log K(PDMS-water)	6.59 ± 0.06
COc1cc2c(Oc3ccc4[nH]c(C)cc4c3F)ccnc2cc1OCC1(N)CC1			paediatric recurrent refractory sarcoma	10 mg	grade 3 Hypertension	0%
Cc1c(C(=O)O)ccc2c3n(nc12)[C@@H]1[C@H](C3)N(CC2CC2)[C@@]2(C(=O)Nc3cc(Cl)ccc32)[C@H]1c1cccc(Cl)c1F			athymic nude mouse, orthotopic tumor, orthotopic brain tumor	10 mg/kg, 24 h, single dose	tumor concentration	263 nmol/L
CN1CCN(c2ccc(Nc3nccc(-c4ccc(F)cc4)n3)cc2C(F)(F)F)CC1			zebrafish embryos	50 µM, 5 d	toxicity	0%
CC1(C)C(/C=C(\Cl)C(F)(F)F)C1C(=O)OC(C#N)c1cccc(Oc2ccccc2)c1 (stereo not shown)			pooled human liver microsomes		CLint	0.45 mL/min/mg protein
Fc1ccc([C@@H]2CCNC[C@H]2COc2ccc3c(c2)OCO3)cc1	Plasmodium falciparum		GB4		IC50	6.31 µM
COc1ccc2nc3cc(Cl)ccc3c(Nc3cc(CN4CCCC4)c(O)c(CN4CCCC4)c3)c2n1			mouse, blood	intraperitoneal, 57 mg/kg	lymphocytes	57.9%

Some of these lines once more:
SMILES	tested on	assay	system	setting	endpoint	result
CO[C@H]1C[C@@H]2CC[C@@H](C)[C@@](O)(O2)C(=O)C(=O)N2CCCC[C@H]2C(=O)O[C@H]([C@H](C)C[C@@H]2CC[C@@H](OC(=O)NCCOCCOCCOCCOCCOCCOCCOCCOCCC(=O)N3CCc4cc(Cn5nc(-c6ccc7oc(N)nc7c6)c6c(N)ncnc65)ccc4C3)[C@H](OC)C2)C[C@@H](O)[C@H](C)/C=C(\C)[C@@H](O)[C@@H](OC)C(=O)[C@H](C)C[C@H](C)/C=C/C=C/C=C/1C		phase 1 dose escalation, refers to: headache	advanced solid tumour patients	intravenous, 6 mg weekly, any grade	TRAE incidence	8.3%
CCc1ccc(CC/C=C/c2ccc3c(c2)C(=O)CC3)cc1			Sprague-Dawley rat, female	oral, 30 mg/kg/day, 14 days	Glucose	6.22 mM
